Assay results from different studies.
Each numbered part is a random draw from the data of one study; scales do not carry over between parts. Changes are numbered by the printed parent chain.

Block 1
Target: CCNA1, cyclin fold, Cln2 fusion (human)
Method: yeast growth competition, sequencing
Sample: yeast
Setting: weak parent motif
Baseline: not given
Reading: higher = stronger binding
Starting sequence: ORC1 docking peptide (human); PRARKRLELGNLG; partner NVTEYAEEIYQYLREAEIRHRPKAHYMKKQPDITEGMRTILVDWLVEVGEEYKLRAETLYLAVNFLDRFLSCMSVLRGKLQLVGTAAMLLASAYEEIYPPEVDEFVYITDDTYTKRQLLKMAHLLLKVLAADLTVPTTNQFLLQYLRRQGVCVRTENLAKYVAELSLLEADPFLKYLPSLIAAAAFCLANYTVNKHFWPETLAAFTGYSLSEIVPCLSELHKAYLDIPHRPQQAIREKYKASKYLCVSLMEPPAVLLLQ
Substitution | normalised enrichment score
R6A | 0.16
E8D | 0.681
R2Y | 0.227
L12Q | 0.379
L9I | 0.448
L9V | 0.552
K5C | 0.438
L12M | 0.572
P1Y | 0.526
K5N | 0.205
A3H | 0.327
E8W | 0.297
N11P | 0.576
L7R | 0.496
G13T | 0.247
K5G | 0.245
R6Q | 0.167
R2M | 0.496
E8Y | 0.288
A3D | 0.312
L7Q | 0.423
P1C | 0.699
K5M | 0.346
E8L | 0.254
R4E | 0.433

Block 2
Target: Interferon regulatory factor 7, full length, phosphomimetic (IRF7, Homo sapiens, UniProt Q92985, residues 1-503, S471D/S472D/S475D/S476D/S477D/S483D/S484D/S487D)
Method: protein-binding microarray
Form: double-stranded DNA, one strand shown
Sample: in vitro
Concentration: 2200 nM top
Setting: 60-bp whole probe
Added: salmon DNA 0.4 mg/ml
Baseline: random background probes
Reading: higher = stronger binding
All sequences stand within: GCCTAGCAC … GTCTTGATTCGCTTGACGCTGCTG
Target sequence (chain): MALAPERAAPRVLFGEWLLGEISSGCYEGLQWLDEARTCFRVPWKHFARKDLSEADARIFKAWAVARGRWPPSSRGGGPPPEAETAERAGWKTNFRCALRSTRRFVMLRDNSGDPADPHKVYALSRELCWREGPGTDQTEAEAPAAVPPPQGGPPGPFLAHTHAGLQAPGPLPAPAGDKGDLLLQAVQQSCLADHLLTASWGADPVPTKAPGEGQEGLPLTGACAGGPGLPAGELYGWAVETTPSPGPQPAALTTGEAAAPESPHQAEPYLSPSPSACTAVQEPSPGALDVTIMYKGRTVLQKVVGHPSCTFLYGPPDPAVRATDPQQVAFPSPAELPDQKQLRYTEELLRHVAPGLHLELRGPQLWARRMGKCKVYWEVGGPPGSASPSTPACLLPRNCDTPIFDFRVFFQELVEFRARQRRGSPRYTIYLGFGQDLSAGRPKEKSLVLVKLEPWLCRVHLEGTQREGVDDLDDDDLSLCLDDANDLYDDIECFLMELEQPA
Strand | fitted relative affinity [z-score]
GTCATACGAGCGGTAGCCAAGTGCTAG | -0.141
TTACGACTGCTTCTCCTTTAGTGCTAG | 1.67
CTAATATTCTGCTTTGCAATGTGCTAG | 1.21
TATCTTATGATATATATAATAGTGCTA | 0.0395
ACCATTTTGGTTTTCCTTATGTGCTAG | 3.42
GACGATTTCCGGTATCGAGACGTGCTA | 1.91
GACGAACTGAGAATCGAGACGTGCTAG | -0.245
TTAGATCTCAGATTCGATTAGTGCTAG | 1.31
GACGGTATCGGGTATCGGGCCGTGCTA | -0.338
TTAGGTTTCTGACTGGGTTAGTGCTAG | 1.2
CTTCATGTTGCTCTCCGGGGGTGCTAG | 1.26
GACGGTCTCCTTCACCTGACGTGCTAG | 0.903
TTAGGTTTCGGTATCGGATAGTGCTAG | 7.41
GGGCCCTGCTGGGAAGTCAGGTGCTAG | -1.77
GACGGTTTCATTATCCTGACGTGCTAG | 3.61
GACGGTATCGACTTTCGGAACGTGCTA | 3.78
GACGGTATCGGGTATCGGTACGTGCTA | 0.126
CTTTAACTCATTCTCCACTTGTGCTAG | 1.47
TTAGGAGTGGGGTTTCGGTTAGTGCTA | 2.97
TTACGTATCGGTTTCGGTTAGTGCTAG | 7.8
GACGGTTTCCTTCTCCTGCCGTGCTAG | 2.65
TCTCATTTCCAATTACCTTTGTGCTAG | 2.98
TTAGGATTCCTTTTCCTTTAGTGCTAG | 2.25
GACGGTTTCGGTTCCGGAACGTGCTAG | 11.4
GTTCTTATCCTTCCCCTCTAGTGCTAG | 2.54

Block 3
Target: Ras GTPase-activating protein-binding protein 1, full length (G3BP1, Homo sapiens, UniProt Q13283)
Chain of UniProt Q13283 (whole entry, looked up): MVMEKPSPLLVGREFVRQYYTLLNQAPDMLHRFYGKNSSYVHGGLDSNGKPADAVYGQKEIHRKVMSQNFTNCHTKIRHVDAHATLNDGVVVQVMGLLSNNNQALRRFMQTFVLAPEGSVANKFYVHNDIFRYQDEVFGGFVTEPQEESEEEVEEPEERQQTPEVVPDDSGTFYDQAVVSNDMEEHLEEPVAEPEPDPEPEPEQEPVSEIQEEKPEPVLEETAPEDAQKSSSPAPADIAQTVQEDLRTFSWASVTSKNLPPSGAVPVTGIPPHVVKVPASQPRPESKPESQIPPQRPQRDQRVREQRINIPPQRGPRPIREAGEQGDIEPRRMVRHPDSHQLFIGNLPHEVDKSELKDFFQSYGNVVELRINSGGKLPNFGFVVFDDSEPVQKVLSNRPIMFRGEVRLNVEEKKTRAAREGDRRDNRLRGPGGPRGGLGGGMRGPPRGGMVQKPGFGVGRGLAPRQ
Method: RNA Bind-n-Seq
Form: RNA
Sample: in vitro
Concentration: 200 nM
Setting: whole 134-nt RNA, ends assumed
Added: 150 mM LiCl
Baseline: input library
Reading: higher = stronger binding
Each molecule: 7-deaza-guanosine replaces G
All sequences stand within: GGGAGUUCUACAGUCCGACGAUC … UGGAAUUCUCGGGUGUCAAGG
Strand | log2 enrichment
UGGGAGGUGGAUUUUGGUUAUUUUUUUAGCUCAUUUCCAGGGGUGGGAAUUUUUUUUUAAUAUGUGUCAUGAAUAAAGUUGUUUUUGAAA | -0.06
UGCCUCGGGAGGAGCUGUUUGUGACAUCCAAGCUGUGGAACACCAAGCACCACCCCGAGGAUGUGGAGCCUGCCCUCCGGAAGACUCUGG | -0.583
CCUCAAGUCCUGUGCUACACAUCGUAUGUACCGAAUCGGUUUUUGGAGGAGGAAAGUAUUAUGUUACGCCGUUCGGAUCUGCACUUCCAG | -0.0376
CCUCAAGUCCUGUGCUACACAUCGUAUGUACCGAAUCGGGUUGGUUGGUUGGGAAAGUAUUAUGUUACGCCGUUCGGAUCUGCACUUCCA | 0.387
UGUGCUACACAUCGUAUGUACCGAAUCGGGGUUUUUUUGGGUUUUUUUGGGGUUUUUUUGGGGAAAGUAUUAUGUUACGCCGUUCGGAUC | 1.94
UCCUGUGCUACACAUCGUAUGUACCGAAUCGGGGUUUUUGGGUUUUUGGGGUUUUUGGGGAAAGUAUUAUGUUACGCCGUUCGGAUCUGC | -0.0334
AGUCCUGUGCUACACAUCGUAUGUACCGAAUCAAACCCCCAAACCCAAACCCCCAAAAAAGUAUUAUGUUACGCCGUUCGGAUCUGCACU | -0.199
CUCAAGUCCUGUGCUACACAUCGUAUGUACCGAAUCGGGUUGGGGUUGGUUGGGAAAGUAUUAUGUUACGCCGUUCGGAUCUGCACUUCC | 0.194
UGGCCCUGGUGGCAUGCGGGGAGGAAGAGGUGGCCUCAUGGAUCGUGGUGGUCCCGGGGGAAUGUUCAGAGGUGGCCGUGGUGGAGACAG | -0.252
UUGACUAUAUUGUGGAGUAUGACUAUGAUGCUGUACAUGAUGAUGAAUUAACUAUUCGAGUUGGAGAAAUCAUCAGGAAUGUGAAAAAGC | -2.3
CCUGUGCUACACAUCGUAUGUACCGAAUCGGGGAAAAAAAGGGGAAAAAAAGGGGUGGGGAAAGUAUUAUGUUACGCCGUUCGGAUCUGC | 0.811

Block 4
Target: RNA binding protein fox-1 homolog 2, RRM domain, GST-SBP tag (RBFOX2, Homo sapiens, UniProt O43251-10, residues 100-194)
Method: RNA Bind-n-Seq
Form: RNA
Sample: in vitro
Concentration: 365 nM
Setting: natural RNA segment, single round, ends assumed
Baseline: no-protein control
Reading: higher = stronger binding
All sequences stand within: GGGAGUUCUACAGUCCGACGAUC … UGGAAUUCUCGGGUGCCAA
Target sequence (chain): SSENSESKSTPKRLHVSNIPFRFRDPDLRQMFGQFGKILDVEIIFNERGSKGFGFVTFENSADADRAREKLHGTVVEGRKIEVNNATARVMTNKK
Strand | RBNS enrichment (R)
UACGUGGCAAUUUUUCAAUGUCAUCUGAAGCCAGCAUUAUCUUCCAAAGAAAUCGAUCUUUUUUUUCUAAAAAAAAAAAAUGCUUUUGCCUUCCCUUCCCUUCCCAUCCG | 0.608
UGCUUGCUCAGGCUCAGAGGGACCUCACCCCUGAGCAGGCUGCAGAGAGACUAAGGGCACUUCCUGAGGUUCAUUACCACCUGGGGCAGAAGGACAGGGAGACAGCAACC | 0.247
CUCUCCAGGCAAGAGGCCAUUCAGUCUGUACAUUGUCGGGACCGGAGAGGUGGGACUGCCAUCUGGGCCUCGGUGGCUUGUUUCCAACCAAAUUAUCUGGGCUUCAGAAG | 0.221
UUUUUAAACACUUUUUGAAAUAGAGUGUGCUGUGUUUAAAACCAAAAAUAUGCAUGUUGUCUCUGAAAAGUAGGCAUUGAAACAGACUUUUUUGUAGUCAGUGUUAAUAA | 10.3
ACCAAAAUGUUAUCUCCACUUCCCCCUCACCCGUAGAGGAUCCUGGCCACAGACAGUUUCAAGUAGUGUCAGAUUUUUGUUGCUUGGGCGGCUGUUGGUAGAGUGGGCAG | 0.471
UGGACCACUGAGAGCCACAGGACCGUUUUGGGGCUGACCUGUCUUAUUACGUAUGUACUUCUAGGUUGCAAGGUUUUGAAAUUUUCUGUACAGUUUGUGAGGACCUUUGC | 0.559
GUGGGAAAGACACAAGCAUCAUGCAGUGGCGAGUCAUUAGUCCCUGUGGGAGCCCGAGGACGCAGACUCGAGUUCCGCUUGGUCACUGUGAUUUCUGUUUUGUCUACAGA | 0.423
GCCUAACAGAUUGGCUUGUUUUAAAGCAAAGACUGAAUUGAAGGUUACAUGUUUUAGGAUAAACUAAUUUCUUUUGAGUUCAUAAAUCAUUUGUACCCAGAAUGUAUUAA | 0.37
CAGGGUUUCUCUGUGUAGCCCUGGCUGUCCUGGAACUCUGUAGACUGGGCUGGCCUCGAACUCAGAGAUCUGCCUGCCCUUGCUGGGAUCAGAGGUGUGCACCACCACUG | 0.323
UGACUCCUUAUUUUUUAAAUGUUUCCACAUUUUUGCUUGUGGAAAGACUGUUUUCAUAUGUUAUACUCAGAUAAAGAUUUUAAAUGGUAUUACGUAUAAAUUAAUAUAAA | 0.774
GCCUAGGGCAACAGAUGUCCUGACUAAUCUGGCUUCUGGUUCCCGGUCCAUCCCUAUUUACAAAGCUAUGGGCCACUGUCAGCACAUUAAACAAGGUGAGGGAGAGUAGC | 0.366
CUUCUAUAUGAGUGUUUUAACCCUCAGCAUUCUGUGGUCAGGAAGAUAAAAGCAUCUGCAGGUCCCUCCAAGACGAGAAGAGCAACAUCAUGCUCUUUGCUUCUGUCUAU | 0.329

Some of these lines once more (block 1):
Substitution | normalised enrichment score
L7Q | 0.423
K5N | 0.205
A3H | 0.327
L9V | 0.552
L12Q | 0.379
